Measured values collected from several papers.
Lines come from different studies, so protocols differ. ± gives the spread as reported.

Structure (SMILES) = CSCC[C@@H]1NC(=O)[C@@H]2CSSC[C@H](NC(=O)[C@H](CO)NC(=O)[C@H](C)N)C(=O)N[C@@H](CCCNC(=N)N)C(=O)N[C@@H]([C@@H](C)O)C(=O)N3CCC[C@H]3C(=O)N[C@@H](CCCCN)C(=O)N[C@@H](CC(=O)O)C(=O)N[C@H]3CSSC[C@H](NC(=O)[C@H](CCCCN)NC(=O)[C@H](CCCNC(=N)N)NC(=O)[C@H](CC(N)=O)NC1=O)C(=O)N[C@@H](CCCCN)C(=O)N[C@H]1CSSC[C@H](NC(=O)[C@@H]4CCCN4C(=O)[C@H](CC(=O)O)NC(=O)[C@H](C)NC3=O)C(=O)N[C@@H](C)C(=O)N[C@@H](CCCCN)C(=O)N[C@@H](CCC(=O)O)C(=O)N[C@@H]([C@@H](C)O)C(=O)NCC(=O)N[C@@H](CSSC[C@@H](C(N)=O)NC(=O)[C@H](CCCNC(=N)N)NC(=O)[C@H](CC(N)=O)NC1=O)C(=O)N1CCC[C@H]1C(=O)N[C@@H](Cc1ccc(O)cc1)C(=O)NCC(=O)N[C@@H](CCCCN)C(=O)N2; test system = DA rat, pristane-induced arthritis, serum; conditions = subcutaneous, 0.1 mg/kg once weekly, end of 21-day trial; quantity = albumin; value = 3.62 g/dL
Structure (SMILES) = CC(C)[C@H](NC(=O)[C@H](Cc1c[nH]c2ccccc12)NC(=O)[C@H](Cc1ccccc1)NC(=O)[C@@H](NC(=O)[C@@H](NC(=O)[C@H](CCCCN)NC(=O)[C@@H](N)CCCCN)C(C)C)C(C)C)C(=O)N[C@@H](CCCCN)C(=O)N[C@@H](Cc1ccccc1)C(=O)N[C@@H](CCCCN)C(N)=O; assay = ELISA, item: IL-2; test system = mouse, blood; conditions = intravenous, 500 µg/kg, 5 days; quantity = cytokine level; value = 10.8 ± 0.95 pg/mL
Structure (SMILES) = CCCCCCCCCCCCC(=O)O.O=C1CCCC2C3CCCN4CCCC(CN12)C34 (centres unmarked); assay = electrical conductivity; test system = water; conditions = 293.15 K, critical micelle concentration; quantity = entropic term −TΔS of micellization; value = -5.82 kcal/mol
Structure (SMILES) = COc1cc(NC(=O)C(=O)c2c(C)n(Cc3ccc(Cl)cc3)c3ccc(C)cc23)ccn1; test system = cynomolgus monkey, both sexes, plasma; conditions = oral, 1000 mg/kg once daily, day 5; quantity = number of plasma metabolites; value = 13
Structure (SMILES) = CC[C@H](C)C(=O)N1CCC(NC(=O)Nc2ccc(OC(F)(F)F)c(F)c2)CC1; test system = healthy volunteers, both sexes; conditions = oral, 8 mg single dose, fed state; quantity = participants with any Serious TEAE; value = 0%
Structure (SMILES) = NC(=O)[C@@H](Cc1ccccc1)N[11C](=O)OCc1ccccc1; assay = dynamic PET imaging; test system = male Wistar rats, spinal cord; conditions = intravenous, 10 min; quantity = maximum uptake; value = 1 SUV
Structure (SMILES) = O=C(O)CC[C@H](NC(=O)O[C@@H](CCCCNC(=O)c1ccc([18F])cc1)C(=O)O)C(=O)O; test system = mouse, PC-3 PIP/flu xenografts, lung; conditions = 60 min; quantity = tissue uptake; value = 0.85 ± 0.55 %ID/g
Structure (SMILES) = Cc1ccc(/C=C/C(=O)O)cc1-c1cc2c(cc1C)C(C)(C)CCC2(C)C; test system = Sprague-Dawley rat, male; conditions = oral, 100 mg/kg, 2 h, sesame oil vehicle; quantity = blood triglycerides; value = 118 ± 21.6 mg/dL

Some of these lines once more:
Structure (SMILES) = O=C(O)CC[C@H](NC(=O)O[C@@H](CCCCNC(=O)c1ccc([18F])cc1)C(=O)O)C(=O)O; test system = mouse, PC-3 PIP/flu xenografts, lung; conditions = 60 min; quantity = tissue uptake; value = 0.85 ± 0.55 %ID/g
